Experimental data gathered from unrelated publications.
Protocols differ between the studies behind these lines. Values joined by “and” are separate records of one study, mostly repeats; a detail may differ. Numbers after ± are the reported error.
folP: Dihydropteroate synthase (folP, Bacteria, UniProt P0AC13)
Chain of UniProt P0AC13 (whole entry, looked up): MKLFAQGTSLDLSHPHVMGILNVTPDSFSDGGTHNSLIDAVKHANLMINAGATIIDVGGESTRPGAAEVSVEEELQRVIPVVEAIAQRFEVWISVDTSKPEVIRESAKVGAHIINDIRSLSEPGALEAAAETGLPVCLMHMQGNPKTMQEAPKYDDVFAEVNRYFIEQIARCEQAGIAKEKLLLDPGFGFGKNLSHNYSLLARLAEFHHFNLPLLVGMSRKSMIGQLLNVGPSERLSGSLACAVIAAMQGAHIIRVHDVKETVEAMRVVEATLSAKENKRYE
T1: RNA aptamer; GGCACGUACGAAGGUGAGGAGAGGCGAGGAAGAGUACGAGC
T2: RNA aptamer; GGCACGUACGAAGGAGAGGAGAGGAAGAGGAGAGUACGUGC
T3: RNA aptamer; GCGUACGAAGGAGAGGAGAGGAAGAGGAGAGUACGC
Chain of UniProt P30048 (whole entry, looked up): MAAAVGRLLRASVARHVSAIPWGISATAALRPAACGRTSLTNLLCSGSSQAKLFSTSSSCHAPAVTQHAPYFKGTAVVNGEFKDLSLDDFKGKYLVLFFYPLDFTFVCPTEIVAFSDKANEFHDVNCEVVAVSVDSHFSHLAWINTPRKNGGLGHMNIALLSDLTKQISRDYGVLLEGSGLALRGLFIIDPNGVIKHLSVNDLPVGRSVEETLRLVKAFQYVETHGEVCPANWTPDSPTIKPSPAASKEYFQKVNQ
Chain of UniProt Q13148 (whole entry, looked up): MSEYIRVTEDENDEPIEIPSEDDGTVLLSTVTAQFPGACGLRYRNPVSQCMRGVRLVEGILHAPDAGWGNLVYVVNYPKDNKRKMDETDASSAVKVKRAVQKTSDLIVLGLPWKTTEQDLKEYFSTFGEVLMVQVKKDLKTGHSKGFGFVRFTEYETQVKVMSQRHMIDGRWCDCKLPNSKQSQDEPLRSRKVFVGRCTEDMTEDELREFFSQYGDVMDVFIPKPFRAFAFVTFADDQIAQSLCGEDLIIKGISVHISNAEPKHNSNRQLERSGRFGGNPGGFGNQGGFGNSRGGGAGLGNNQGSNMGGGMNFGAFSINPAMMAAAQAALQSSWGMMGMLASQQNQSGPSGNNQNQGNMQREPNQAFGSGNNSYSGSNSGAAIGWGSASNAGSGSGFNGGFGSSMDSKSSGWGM
Chain of UniProt P33992 (whole entry, looked up): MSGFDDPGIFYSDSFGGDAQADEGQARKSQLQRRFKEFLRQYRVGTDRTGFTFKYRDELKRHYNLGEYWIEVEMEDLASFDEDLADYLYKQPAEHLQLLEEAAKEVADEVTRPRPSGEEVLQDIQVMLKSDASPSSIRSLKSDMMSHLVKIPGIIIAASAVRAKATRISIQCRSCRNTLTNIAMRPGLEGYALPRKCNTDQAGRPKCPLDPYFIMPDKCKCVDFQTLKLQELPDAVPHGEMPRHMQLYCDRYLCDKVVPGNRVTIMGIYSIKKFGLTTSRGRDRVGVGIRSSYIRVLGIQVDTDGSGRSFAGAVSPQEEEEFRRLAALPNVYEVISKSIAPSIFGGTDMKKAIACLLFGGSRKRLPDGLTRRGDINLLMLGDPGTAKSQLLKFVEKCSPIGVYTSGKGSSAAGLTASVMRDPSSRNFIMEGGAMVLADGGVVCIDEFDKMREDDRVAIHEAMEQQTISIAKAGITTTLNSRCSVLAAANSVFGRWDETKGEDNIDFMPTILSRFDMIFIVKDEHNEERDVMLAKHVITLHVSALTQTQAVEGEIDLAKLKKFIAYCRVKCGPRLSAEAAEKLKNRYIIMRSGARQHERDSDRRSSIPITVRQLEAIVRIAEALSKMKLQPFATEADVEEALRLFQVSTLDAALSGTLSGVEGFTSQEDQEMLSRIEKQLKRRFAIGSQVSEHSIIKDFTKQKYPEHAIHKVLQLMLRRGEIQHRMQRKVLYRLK
Chain of UniProt P45983 (whole entry, looked up): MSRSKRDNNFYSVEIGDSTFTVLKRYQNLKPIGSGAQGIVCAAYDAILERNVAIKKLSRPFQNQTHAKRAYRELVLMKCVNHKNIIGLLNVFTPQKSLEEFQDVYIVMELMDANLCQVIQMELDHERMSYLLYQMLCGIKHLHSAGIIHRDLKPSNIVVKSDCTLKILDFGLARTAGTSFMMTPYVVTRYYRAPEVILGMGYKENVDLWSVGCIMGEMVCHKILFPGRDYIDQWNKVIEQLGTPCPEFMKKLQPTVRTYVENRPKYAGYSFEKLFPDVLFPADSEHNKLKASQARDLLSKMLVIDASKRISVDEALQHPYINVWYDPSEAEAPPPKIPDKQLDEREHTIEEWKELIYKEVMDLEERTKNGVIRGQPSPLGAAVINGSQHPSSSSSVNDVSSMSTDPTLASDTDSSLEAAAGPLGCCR
Chain of UniProt Q96EB6 (whole entry, looked up): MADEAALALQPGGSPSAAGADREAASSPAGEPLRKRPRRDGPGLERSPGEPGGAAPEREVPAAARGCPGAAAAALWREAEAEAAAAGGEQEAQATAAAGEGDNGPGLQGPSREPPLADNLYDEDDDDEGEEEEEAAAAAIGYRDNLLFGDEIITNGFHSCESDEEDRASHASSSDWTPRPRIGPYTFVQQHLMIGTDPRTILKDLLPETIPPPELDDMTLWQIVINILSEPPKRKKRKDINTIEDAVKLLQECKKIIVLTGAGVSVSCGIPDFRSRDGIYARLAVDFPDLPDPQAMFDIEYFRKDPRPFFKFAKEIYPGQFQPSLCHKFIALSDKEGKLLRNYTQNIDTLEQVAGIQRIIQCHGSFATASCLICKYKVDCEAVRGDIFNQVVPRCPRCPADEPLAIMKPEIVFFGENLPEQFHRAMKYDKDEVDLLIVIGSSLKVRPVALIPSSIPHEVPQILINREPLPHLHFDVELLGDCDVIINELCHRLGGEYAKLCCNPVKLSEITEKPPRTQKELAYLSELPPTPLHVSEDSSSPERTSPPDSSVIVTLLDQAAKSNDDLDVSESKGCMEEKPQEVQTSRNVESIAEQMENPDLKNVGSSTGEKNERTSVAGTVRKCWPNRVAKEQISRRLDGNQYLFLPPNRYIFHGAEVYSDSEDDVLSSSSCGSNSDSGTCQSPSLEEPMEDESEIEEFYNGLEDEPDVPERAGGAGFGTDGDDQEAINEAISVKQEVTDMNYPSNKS
Chain of UniProt O94762 (whole entry, looked up): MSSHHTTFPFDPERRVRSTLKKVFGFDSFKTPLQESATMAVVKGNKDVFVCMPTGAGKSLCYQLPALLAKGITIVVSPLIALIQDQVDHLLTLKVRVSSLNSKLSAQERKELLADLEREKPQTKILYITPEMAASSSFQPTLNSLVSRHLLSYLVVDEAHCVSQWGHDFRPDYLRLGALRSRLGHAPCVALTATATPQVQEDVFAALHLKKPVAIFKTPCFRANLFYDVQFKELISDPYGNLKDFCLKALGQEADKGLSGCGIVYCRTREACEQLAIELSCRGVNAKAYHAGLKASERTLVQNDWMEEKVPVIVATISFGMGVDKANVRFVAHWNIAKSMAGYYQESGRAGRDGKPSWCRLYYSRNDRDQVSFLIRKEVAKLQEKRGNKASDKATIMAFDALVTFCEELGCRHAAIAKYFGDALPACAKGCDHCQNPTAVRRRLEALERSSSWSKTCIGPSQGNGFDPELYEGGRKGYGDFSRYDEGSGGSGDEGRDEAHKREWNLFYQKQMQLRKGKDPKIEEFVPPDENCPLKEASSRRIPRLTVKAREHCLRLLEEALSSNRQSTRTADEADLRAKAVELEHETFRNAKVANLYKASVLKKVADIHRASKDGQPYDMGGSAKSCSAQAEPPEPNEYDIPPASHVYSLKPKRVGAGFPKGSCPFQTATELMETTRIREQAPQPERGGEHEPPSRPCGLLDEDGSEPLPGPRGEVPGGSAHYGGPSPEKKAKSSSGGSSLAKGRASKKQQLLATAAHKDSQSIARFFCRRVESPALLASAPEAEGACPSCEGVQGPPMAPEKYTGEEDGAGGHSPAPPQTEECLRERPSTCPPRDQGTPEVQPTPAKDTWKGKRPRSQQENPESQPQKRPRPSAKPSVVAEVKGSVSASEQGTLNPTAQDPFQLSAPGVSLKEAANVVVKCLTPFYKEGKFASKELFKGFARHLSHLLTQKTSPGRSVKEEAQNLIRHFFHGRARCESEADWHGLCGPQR
Chain of UniProt P97287 (152-308, looked up): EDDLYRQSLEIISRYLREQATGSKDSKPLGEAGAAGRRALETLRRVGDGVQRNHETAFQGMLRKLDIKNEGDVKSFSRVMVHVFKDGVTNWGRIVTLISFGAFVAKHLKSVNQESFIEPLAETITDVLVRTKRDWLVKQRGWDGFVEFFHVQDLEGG

Cc1nn(C)c2nc(N)[nH]c(=O)c2c1=O
melting temperature shift (folP; CETSA HiBiT; Escherichia coli, cell lysate; concentration not given; baseline: DMSO): 13.9 °C

Cc1ccc2c(c1)N(C)C=CC2=Cc1sc2ccccc2[n+]1C
Kd (T1, RNA aptamer; fluorescence titration): 8.98 nM

O=C(NO)c1ccc(Cn2c3c(c4cc(Br)ccc42)SC(c2ccccc2)C3)s1 (racemic)
interatomic distance (Histone deacetylase 8 (Schistosoma mansoni, UniProt A5H660); X-ray crystallography; ligand-Lys20 side chain, chain B, C3-CD): 3.91 Å

Cn1nc(CCCC(=O)O)c(=O)c2c(=O)[nH]c(N)nc21
melting temperature (folP; CETSA HiBiT; Escherichia coli, whole cells): 57 °C

O=C1c2sc(-c3ccc(N4CCC(F)C4)nc3F)nc2CCN1c1cccnc1 (centres unmarked)
specific binding (TAR DNA-binding protein 43, aggregated (TARDBP, Homo sapiens, UniProt Q13148); radioligand binding; human, FTLD-TDP type B sarkosyl-insoluble extract; 72.89 nM): 2.22 nM and 1.99 nM

Cc1n[nH]c2nc(N)[nH]c(=O)c2c1=O
target engagement efficiency (folP; CETSA HiBiT; Escherichia coli, whole cells; concentration not given; baseline: whole cell over lysate ΔTm): 8.76%

O=C1N(c2cccc(CN3CCN(Cc4ccc(Br)cc4)CC3)c2)C(=O)C12CCCCC2
activity vs control (Dipeptidyl peptidase 9 (DPP9, Homo sapiens, UniProt Q86TI2); enzyme activity, inhibitor; 5 µM): 36%

CCC1Sc2ccc(S(=O)(=O)CCC(=O)Nc3cccc4ccccc34)cc2NC1=O (centres unmarked)
remaining current (P2X purinoceptor 7 (Ailuropoda melanoleuca, UniProt G1M6C4); ATP-evoked current, inhibitor, whole-cell patch clamp; HEK293 transfected; 0.1 µM, wild type): 98.5%

CC(C=CC=C(C)C=CC1=C(C)CCCC1(C)C)=CC=O
Pearson correlation coefficient (Rhodopsin (RHO, Homo sapiens, UniProt P08100, T17M); ER retention, immunostaining co-localization, item: opsin with calnexin; COS-7 transfected T17M; 5.00 µM): 0.64

Cc1cc(C)cc(COc2cc3c(cc2OCc2cc(C)cc(C)c2)C2CC(O)(Cc4cn(CCOCCOCCNC(=O)CCCCC5SCC6NC(=O)NC65)nn4)CC(C)N2CC3)c1 (centres unmarked)
SILAC ratio (Serine/threonine-protein phosphatase 6 regulatory subunit 3 (Homo sapiens, UniProt Q5H9R7); biotinylated probe pull-down, item: PPP6R3; 10 µM probe; baseline: heavy over light): 3.25

CC(C(=O)O)c1n[nH]c2nc(N)[nH]c(=O)c2c1=O (centres unmarked)
melting temperature shift (folP; CETSA HiBiT; Escherichia coli, whole cells; concentration not given; baseline: DMSO): 4.93 °C

CC1(C)C[C@@H](Nc2cccc(-c3sc(C(=O)O)c(OCC(=O)O)c3Cl)c2)CCN1S(=O)(=O)Cc1cccc(NC(=O)CN2CCC(c3ccc4c(c3)oc(=O)n4C3CCC(=O)NC3=O)CC2)c1 (some centres unmarked)
BLI binding response (Tyrosine-protein phosphatase non-receptor type 1 (PTPN1, Homo sapiens, UniProt P18031); degrader, bio-layer interferometry; 250 nM, biotinylated protein immobilised; higher = more binding): 0.355 a.u.

CC(=O)NCCCCCNc1nc(NCCCCCCN(C)C)c2cc(NC(=O)/C=C/CN(C)C)ccc2n1
remaining signal (Histone-lysine N-methyltransferase SETDB1 (SETDB1, Homo sapiens, UniProt Q15047); cell-free assay, inhibitor, FP; 15.62 nM): 118%

CC(=O)N[C@@H](CCC(=O)O)C(=O)N[C@@H](CCC(=O)O)C(=O)N[C@@H](CCC(=O)O)C(=O)N[C@@H](Cc1c[nH]c2ccccc12)C(=O)N[C@@H](C)C(=O)N[C@@H](CCCNC(=N)N)C(=O)N[C@@H](CCC(=O)O)C(=O)N[C@@H](Cc1ccccc1)C(=O)NCC(=O)N[C@@H](C)C(=O)N[C@@H](CCC(N)=O)C(=O)N[C@@H](CC(C)C)C(=O)N[C@@H](CCCNC(=N)N)C(=O)N[C@@H](CCCNC(=N)N)C(=O)N[C@@H](C)C(=O)N[C@@H](C)C(=O)N[C@@H](CC(=O)O)C(=O)N[C@@H](CC(=O)O)C(=O)N[C@@H](CC(C)C)C(=O)N[C@@H](CC(N)=O)C(=O)N[C@@H](C)C(=O)N[C@@H](CCC(N)=O)C(=O)N[C@@H](Cc1ccc(O)cc1)C(=O)N[C@@H](CCC(=O)O)C(=O)N[C@@H](CCCNC(=N)N)C(=O)N[C@@H](CCCNC(=N)N)C(=O)N[C@@H](CCCNC(=N)N)C(N)=O
koff (Induced myeloid leukemia cell differentiation protein Mcl-1 homolog, residues 152-308 (Mus musculus, UniProt P97287); binding, SPR; 0.2% DMSO): 0.0275 s⁻¹

CC(=O)C12NC(C)(C)CC1(C)C(=O)C1=C2c2c(c3c4n2C(C)(C)CC2=C4C4(CC(C)(C)NC(C)(C4)C2=O)CC3(C)C)C(=O)C(C)(C)N1 (single isomer, unassigned; (-))
activation (P2X purinoceptor 4 (P2RX4, Homo sapiens, UniProt Q99571); ion current, agonist, whole-cell patch clamp; HEK293T; 10 µM): 1.24%

Cn1cc(-c2cc(N3CCCCS3(=O)=O)ccc2N[C@H]2CC[C@H](C)CC2)c2cc[nH]c2c1=O (stereo in doubt)
remaining binding (Nucleosome-remodeling factor subunit BPTF (BPTF, Homo sapiens, UniProt Q12830); binding, competition with immobilised ligand; 1 µM): 100%

COc1cc(C2C(NC(=O)c3ccc(NC(=O)OC(C)(C)C)cc3)(C(=O)O)C(c3ccc(OC(=O)c4cccs4)c(OC)c3)C2(NC(=O)c2ccc(NC(=O)OC(C)(C)C)cc2)C(=O)O)ccc1OC(=O)c1cccs1 (centres unmarked)
Emax (Glucagon-like peptide 1 receptor (GLP1R, Homo sapiens, UniProt P43220); cAMP accumulation, agonist; baseline: wild-type receptor response): 99.3 ± 2.63%

C[C@@H](Nc1nc(N[C@H](C)C(F)(F)F)nc(-c2cccc(Cl)n2)n1)C(F)(F)F
maximum inhibition (Isocitrate dehydrogenase [NADP], mitochondrial, heterodimer with wild-type (IDH2, Homo sapiens, UniProt P48735, R172K); reverse reaction; 16 h preincubation, mutant): 87.8 ± 3.3%

CCCCCCCCCCCCC/C=C/C=O
isoTOP-ABPP competition ratio (Large ribosomal subunit protein uL14 (Homo sapiens, UniProt P62829); competitive isoTOP-ABPP, item: RPL23 cysteine peptide; Ramos soluble proteome; 100 µM, added: iodoacetamide probe; baseline: DMSO over compound-treated, higher = stronger cysteine blockade): 1.4

CC(=O)N[C@@H](CO)C(=O)N[C@@H](CC(C)C)C(=O)N[C@@H](CCC(=O)O)C(=O)N[C@@H](CCC(=O)O)C(=O)N1CCC[C@H]1C(=O)N[C@@H](Cc1c[nH]cn1)C(=O)N[C@@H](COP(=O)(O)O)C(=O)N1CCC[C@H]1C(=O)N[C@@H](CCC(=O)O)C(=O)N[C@H](C(=O)NCC(=O)N[C@@H](CCC(=O)O)C(=O)N[C@@H](CCCCN)C(=O)N[C@H](C(=O)N[C@H](C(=O)N[C@@H](C)C(=O)NCC(=O)N[C@@H](CCC(=O)O)C(=O)N[C@H](C(=O)N[C@@H](CC(N)=O)C(N)=O)C(C)C)C(C)C)C(C)C)[C@@H](C)O
ΔG (Kelch-like ECH-associated protein 1, Kelch domain (KEAP1, Homo sapiens, UniProt Q14145); binding, ITC; pH 7, 298.15 K): -7.91 ± 0.1 kcal/mol

CC(C)C[C@@H]1NC(=O)[C@@H]2CSSC[C@@H](C(=O)NCC(=O)O)NC(=O)[C@H](Cc3ccccc3)NC(=O)CNC(=O)[C@H](CC(N)=O)NC(=O)[C@@H]3CCCN3C(=O)CNC(=O)[C@@H]3CSSC[C@H](NC(=O)[C@H](CCCNC(=N)N)NC(=O)[C@H](CCC(N)=O)NC(=O)[C@H](CCCNC(=N)N)NC(=O)[C@H](CCCCN)NC(=O)[C@H](C(C)C)NC(=O)[C@H](C)NC(=O)[C@H](CC(N)=O)NC(=O)[C@H](CO)NC(=O)[C@H](C)NC(=O)[C@H](CCCNC(=N)N)NC(=O)[C@@H](NC(=O)CN)CSSC[C@H](NC(=O)CNC(=O)[C@H](C)NC1=O)C(=O)N[C@@H](C(C)C)C(=O)N3)C(=O)N[C@@H](CCCCN)C(=O)N[C@@H](CCC(N)=O)C(=O)N[C@@H](CC(=O)O)C(=O)N[C@@H](CO)C(=O)N[C@@H](CC(=O)O)C(=O)N2
kon (Low-density lipoprotein receptor-related protein 6, E1 domain (LRP6, Homo sapiens, UniProt O75581); binding, SPR; pH 7.5): 2.26e+06 ± 300000 M⁻¹ s⁻¹

C#CCOC(=O)[C@@]1(C)C=C(C(=O)OC(C)(C)C)C(=O)CC1
normalized kinase activity (Mitogen-activated protein kinase 8 (MAPK8, Homo sapiens, UniProt P45983); enzyme activity, D-SENSOR; 44.44 µM, mean of replicates): 0.737

Cc1cccc(C)c1CNc1cc(C(=O)N2CCC2)cn2c(C)c(C)nc12
selectivity ratio (porcine Na+/K+-ATPase; cerebral cortex; baseline: Na+/K+-ATPase IC50 over H+/K+-ATPase IC50): > 600 fold

COc1ccc(-c2ccc3c(c2)C(=Cc2sc4ccccc4[n+]2CC(=O)NCCOCCOCCOCCNC(=O)CCCC[C@@H]2SC[C@@H]4NC(=O)N[C@@H]42)C=CN3C)cc1
Kd (T2, RNA aptamer; fluorescence titration): 0.2 nM

C=CC(=O)N1CC2(CCN(c3nc(OC4CCN(CCCOC)CC4)nc4c(OCC(F)(F)F)c(-c5c(C)ccc6[nH]ncc56)c(C5CC5)cc34)CC2)C1
dissociation rate constant koff (GTPase KRas, GDP-bound (KRAS, Homo sapiens, UniProt P01116, G12D); SPR): 0.303 ± 0.013 s⁻¹

COc1ccccc1-c1ccncc1C(=O)Nc1nnc(OCc2ccc(Cl)cc2)s1
remaining activity (RECQL5 (Homo sapiens, UniProt O94762); ATPase activity, ADP-Glo; 0.06 µM, 1 h): 110%

CN(Cc1nn(C)c2nc(N)[nH]c(=O)c2c1=O)c1nnn[nH]1
melting temperature shift (folP; CETSA HiBiT; Escherichia coli, whole cells; concentration not given; baseline: DMSO): 3.96 °C

CN1C=C/C(=C\c2sc3ccccc3[n+]2CC(=O)NCc2ccccc2-n2cccn2)c2ccccc21
binding (T3, RNA aptamer; X-ray crystallography): binds

COC(=O)[C@@]1(C)C=C(C(=O)Nc2cccc(C(=O)Nc3ccc(Nc4nccc(-c5cccnc5)n4)c(C)c3)c2)C(=O)CC1
remaining activity (human p38 MAPK; 33PanQinase; 1 µM; baseline: control): 85%

Cc1cnc2nc1Nc1cccc(c1)COC/C=C/COCc1cc(ccc1OCCN1CCOCC1)N2
remaining binding (Receptor-type tyrosine-protein kinase FLT3 (FLT3, Homo sapiens, UniProt P36888, D835H); binding; 0.1 µM): 3.8%

CC1(C)CC[C@@]2(CO)C(=C3C=C[C@@H]4[C@@]5(C)CC[C@H](O)[C@@](C)(CO)[C@@H]5CC[C@@]4(C)[C@]3(C)C[C@@H]2O)C1
MST normalised fluorescence (NAD-dependent protein deacetylase sirtuin-1 (SIRT1, Homo sapiens, UniProt Q96EB6); binding, microscale thermophoresis; 46.3 nM): 910 a.u.

CC(CC(=O)O)c1nn(C)c2nc(N)[nH]c(=O)c2c1=O (centres unmarked)
melting temperature (folP; CETSA HiBiT; Escherichia coli, whole cells): 60.1 °C

CCCCCC(O)/C=C/C=O (centres unmarked)
probe labelling ratio (DNA replication licensing factor MCM5 (Homo sapiens, UniProt P33992); acylphosphate-ATP probe SILAC-ABPP, item: MCM5; ZAK-transfected HEK293T; 100 µM, added: acylphosphate-ATP probe; baseline: DMSO over compound-treated): 0.63

N[C@H]1CC[C@H](Nc2nccc(-c3cccnc3Oc3ccc(NC(=O)NC4CC4)c4ccccc34)n2)CC1
log2 LFQ intensity (Thioredoxin-dependent peroxide reductase, mitochondrial (PRDX3, Homo sapiens, UniProt P30048); kinobead competition pulldown; HEK293/HCT116 lysate mixture; 10 µM, 1 h, 4 °C; lower = stronger competition): 21.8 and 22.8 and 22

CNC1C[S+]2CC[S+]3CC[S+](C1)[Ru-4]321([N]=C=S)[n]2c3ccc(OC)cc3c3c4c(c5cc(F)c[n+]1c5c32)C(=O)NC4=O (centres unmarked)
remaining binding (Tyrosine-protein kinase ABL1, non-phosphorylated (ABL1, Homo sapiens, UniProt P00519, F317L); KinomeScan; 0.1 µM; baseline: untreated): 100%

Excerpt of the above:
O=C(NO)c1ccc(Cn2c3c(c4cc(Br)ccc42)SC(c2ccccc2)C3)s1 (racemic)
interatomic distance (Histone deacetylase 8 (Schistosoma mansoni, UniProt A5H660); X-ray crystallography; ligand-Lys20 side chain, chain B, C3-CD): 3.91 Å

Cn1nc(CCCC(=O)O)c(=O)c2c(=O)[nH]c(N)nc21
melting temperature (folP; CETSA HiBiT; Escherichia coli, whole cells): 57 °C
